# Results from different studies.
# Parts stem from different laboratories: compare values within a part only. Changes are numbered by the printed parent chain.

# Block 1
# Host: human
# Matrix: microsomes or S9
# Concentration: 2 µM
# Time: 0.5 h
SMILES,remaining compound
Cc1c(Cl)cccc1-c1ccc(CNCCN(C)C)o1,41.4%
Cc1cc(C(=O)N2CCOCC2)c2c(=O)n(Cc3ccccc3C)c(=O)n(-c3ccccc3)c2n1,14.6%
Clc1cc(Cl)cc(-c2ccc(CNCc3ccncc3)o2)c1,54.1%
CC(C)OCCCN(C)C1CCN(S(=O)(=O)c2ccc3[nH]c(=O)ccc3c2)CC1,95.2%
Cn1c(=O)n(-c2ncccc2C#N)c2ccccc21,45.7%

# Block 2
# Target: ABI1, truncated, D143A, DHFR fusion (Arabidopsis thaliana)
# Method: DHFR PCA, deep sequencing
# Matrix: yeast
# Setting: methotrexate growth selection, single substitutions
# Added: (+)-ABA 0.032 µM
# Baseline: wild-type fitted maximum
# Direction: higher = stronger binding
# Parent: PYL1, truncated, DHFR fusion (Arabidopsis thaliana); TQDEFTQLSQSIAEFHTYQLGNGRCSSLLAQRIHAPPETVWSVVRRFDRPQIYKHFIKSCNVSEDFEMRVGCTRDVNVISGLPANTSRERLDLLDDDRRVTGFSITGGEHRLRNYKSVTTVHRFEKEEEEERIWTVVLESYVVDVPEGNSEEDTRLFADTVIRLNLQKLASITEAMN; partner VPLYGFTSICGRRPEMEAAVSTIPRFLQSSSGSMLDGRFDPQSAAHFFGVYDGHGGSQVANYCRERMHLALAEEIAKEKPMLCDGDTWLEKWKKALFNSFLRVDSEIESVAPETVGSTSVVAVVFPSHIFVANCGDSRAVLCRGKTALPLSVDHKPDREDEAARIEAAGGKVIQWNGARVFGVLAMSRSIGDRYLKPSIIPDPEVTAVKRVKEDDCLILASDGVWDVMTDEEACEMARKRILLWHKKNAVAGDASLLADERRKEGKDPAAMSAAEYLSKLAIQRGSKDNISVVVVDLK
Variant,relative binding score [%]
T120W,-0.148
E127H,47.7
E128H,64.3
K116Y,2.08
V62A,1.81
D92L,-4.22
D144V,0.392
V44E,-0.715

# Block 3
# Target: Prothrombin, mature alpha-thrombin (F2, Homo sapiens, UniProt P00734)
# Method: aptamer microarray, sandwich
# Molecule type: DNA with 2'F-ANA
# Matrix: in vitro
# Concentration: 200 nM
# Setting: whole 15-mer aptamer, many near background
# Added: Cy3 exosite-II aptamer, 400 nM
# Direction: higher = stronger binding
# Sequence: GGTTGGTGTGGTTGG
Modification,mean fluorescence intensity [a.u.]
2'F-ANA at 3 4 6 8 9 10 12 13 14,172
2'F-ANA at 1 3 8 9 10 11 12 13,101
2'F-ANA at 2 3 5 6 10 11 14 15,49.7
2'F-ANA at 1 2 4 5 9 11 13 14 15,50.4
2'F-ANA at 2 3 12 13 15,1050
2'F-ANA at 1 3 4 5 11 13,48.5
2'F-ANA at 1 2 10 13 14,56.9
2'F-ANA at 1 2 3 4 7 8,237

# Block 4
# Target: Alpha-1A adrenergic receptor (ADRA1A, Homo sapiens, UniProt P35348)
# UniProt P35348, sequence (whole entry, looked up): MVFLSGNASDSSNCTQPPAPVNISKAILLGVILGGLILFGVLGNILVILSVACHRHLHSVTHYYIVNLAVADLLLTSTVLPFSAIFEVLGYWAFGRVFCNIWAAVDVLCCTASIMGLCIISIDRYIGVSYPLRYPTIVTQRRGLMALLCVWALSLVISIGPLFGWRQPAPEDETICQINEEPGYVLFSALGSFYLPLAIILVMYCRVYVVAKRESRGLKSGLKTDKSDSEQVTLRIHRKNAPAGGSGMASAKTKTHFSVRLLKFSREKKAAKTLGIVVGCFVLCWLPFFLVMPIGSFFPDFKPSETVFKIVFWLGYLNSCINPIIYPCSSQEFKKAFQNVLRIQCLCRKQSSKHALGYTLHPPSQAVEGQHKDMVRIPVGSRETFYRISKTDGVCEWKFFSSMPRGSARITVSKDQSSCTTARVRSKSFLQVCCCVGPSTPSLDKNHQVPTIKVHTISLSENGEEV
# Effect on: ligand displacement
# Concentration: 10 µM
SMILES,inhibition
COc1cc(-c2cn(C3CCc4c(F)cccc4N(CC(F)(F)F)C3=O)nn2)ccc1-n1cnc(C)c1 (stereo not drawn),14.1%
COc1cc(N[C@@H]2CCCC[C@]2(O)C(F)(F)F)ccc1F,2.69%
CO[C@H]1CC[C@H](CNc2ccc(S(=O)(=O)NC(=O)c3ccc(N4CCN(CC5=C(c6ccc(Cl)cc6)CC(C)(C)CC5)CC4)cc3Oc3cnc4[nH]ccc4c3)cc2[N+](=O)[O-])CC1,-27.7%
CC(=O)Nc1ncc(CN2CCC[C@H](Cc3cc(C)nc(C)c3)C2)s1,2.36%
Nc1cnc(N2CCc3cc(S(=O)(=O)Nc4c(F)cc(Cl)cc4F)cc(N4CCCC4=O)c32)nc1,-15.7%
CN1CCN(c2ccnc(NCCc3ccccc3)n2)CC1,19.2%
CNC(=N)NCCC[C@H](NC(=O)[C@H](CC(C)C)NC(=O)NNC(=O)[C@H](Cc1ccccc1)NC(=O)[C@H](CO)NC(=O)[C@H](CC(N)=O)NC(=O)[C@@H](Cc1ccncc1)NC(=O)[C@H](N)Cc1ccc(O)cc1)C(=O)N[C@@H](Cc1ccccc1)C(N)=O,-9.06%
Nc1nc(NCc2ccccc2)nc(-c2cccc(CO)c2)n1,5.91%
c1ccc(C2CCN(c3cnc4c(N5CCOCC5)nccn34)CC2)cc1,22.5%
O=C(Nc1ccc(Oc2ccc(F)cc2)cc1)N1CCc2ncccc2[C@H]1c1ccc(F)cc1,16.2%
CC[C@H](CC(=O)O)n1c(=O)c2ncccc2n(Cc2cn(C)c3cc(C)cc(C)c23)c1=O,0.23%
Nc1nc(NCc2ccccc2)nc(-c2ccccc2CO)n1,25.5%
C[C@H](c1ccnc(Nc2nc3ccc(-c4cc(N(C)C)ncn4)cc3[nH]2)c1)N1CCN(C(=O)CC(F)(F)F)CC1,11.9%
CCc1ccccc1C(=O)Nc1n[nH]c2c(C)c(F)c(C3C(C#N)=C(C)N(C)C(C)=C3C#N)cc12,6.85%
O=C(NS(=O)(=O)c1ccc(NCC2CCOCC2)c([N+](=O)[O-])c1)c1ccc(N2CCN(Cc3ccc(C(F)(F)F)cc3-c3ccc(Cl)cc3)CC2)cc1Oc1cnc2[nH]ccc2c1,-25.5%
COCCOc1nc(-c2ccc(Cl)nc2)nc2c1CN(C(=O)c1ncn3ccccc13)CC2,12.7%
Cc1cc(Nc2nccc(C)n2)cc(-c2cnc([C@@]3(O)CC[C@H](C(=O)O)C(C)(C)C3)s2)c1,-16.9%
COc1ccc2cc(OCC3(C(=O)O)CN(C(=O)c4ccc(F)cc4)C3)ccc2c1,2.52%

# Repeated from above (block 4):
SMILES,inhibition
COc1cc(N[C@@H]2CCCC[C@]2(O)C(F)(F)F)ccc1F,2.69%
COc1cc(-c2cn(C3CCc4c(F)cccc4N(CC(F)(F)F)C3=O)nn2)ccc1-n1cnc(C)c1 (stereo not drawn),14.1%
O=C(NS(=O)(=O)c1ccc(NCC2CCOCC2)c([N+](=O)[O-])c1)c1ccc(N2CCN(Cc3ccc(C(F)(F)F)cc3-c3ccc(Cl)cc3)CC2)cc1Oc1cnc2[nH]ccc2c1,-25.5%
COCCOc1nc(-c2ccc(Cl)nc2)nc2c1CN(C(=O)c1ncn3ccccc13)CC2,12.7%
CC(=O)Nc1ncc(CN2CCC[C@H](Cc3cc(C)nc(C)c3)C2)s1,2.36%
CCc1ccccc1C(=O)Nc1n[nH]c2c(C)c(F)c(C3C(C#N)=C(C)N(C)C(C)=C3C#N)cc12,6.85%
